Measurements collected from several papers.
Each numbered part is a random draw from the data of one study; scales do not carry over between parts.

Set 1
Target: Prothrombin, mature alpha-thrombin (F2, Homo sapiens, UniProt P00734)
Method: aptamer microarray, sandwich
Molecule type: DNA with 2'F-ANA
Matrix: in vitro
Concentration: 200 nM
Notes: whole 15-mer aptamer, many near background
Together with: Cy3 exosite-II aptamer, 400 nM
Direction: higher = stronger binding
Strand: GGTTGGTGTGGTTGG
Modification	mean fluorescence intensity [a.u.]
2'F-ANA at 1 5 7 8 10 14 15	50.7
2'F-ANA at 2 5 6 11 14	45.6
2'F-ANA at 1 2 4 7 9 12	325
2'F-ANA at 1 3 4 6 8 9 10 15	59.4
2'F-ANA at 1 2 3 4 5 6 7 11 13	50
2'F-ANA at 2 3 5 10 12 13 14	46.6
2'F-ANA at 6 8 10 11 12 13	158
2'F-ANA at 1 2 3 4 5 7 8 9 10 14 15	50.9
2'F-ANA at 2 3 5 6 7 9 12 14 15	52.5
2'F-ANA at 4 6 8 13 15	187
2'F-ANA at 2 3 4 5 9 11 12 13 15	494
2'F-ANA at 1 5 6 10 11 14 15	63.2
2'F-ANA at 1 2 3 6 8 9 11 12 14 15	119

Set 2
Target: Sal-like protein 4, full length isoform A (SALL4, Homo sapiens, UniProt Q9UJQ4, residues 1-1053)
Sequence of UniProt Q9UJQ4 (whole entry, looked up): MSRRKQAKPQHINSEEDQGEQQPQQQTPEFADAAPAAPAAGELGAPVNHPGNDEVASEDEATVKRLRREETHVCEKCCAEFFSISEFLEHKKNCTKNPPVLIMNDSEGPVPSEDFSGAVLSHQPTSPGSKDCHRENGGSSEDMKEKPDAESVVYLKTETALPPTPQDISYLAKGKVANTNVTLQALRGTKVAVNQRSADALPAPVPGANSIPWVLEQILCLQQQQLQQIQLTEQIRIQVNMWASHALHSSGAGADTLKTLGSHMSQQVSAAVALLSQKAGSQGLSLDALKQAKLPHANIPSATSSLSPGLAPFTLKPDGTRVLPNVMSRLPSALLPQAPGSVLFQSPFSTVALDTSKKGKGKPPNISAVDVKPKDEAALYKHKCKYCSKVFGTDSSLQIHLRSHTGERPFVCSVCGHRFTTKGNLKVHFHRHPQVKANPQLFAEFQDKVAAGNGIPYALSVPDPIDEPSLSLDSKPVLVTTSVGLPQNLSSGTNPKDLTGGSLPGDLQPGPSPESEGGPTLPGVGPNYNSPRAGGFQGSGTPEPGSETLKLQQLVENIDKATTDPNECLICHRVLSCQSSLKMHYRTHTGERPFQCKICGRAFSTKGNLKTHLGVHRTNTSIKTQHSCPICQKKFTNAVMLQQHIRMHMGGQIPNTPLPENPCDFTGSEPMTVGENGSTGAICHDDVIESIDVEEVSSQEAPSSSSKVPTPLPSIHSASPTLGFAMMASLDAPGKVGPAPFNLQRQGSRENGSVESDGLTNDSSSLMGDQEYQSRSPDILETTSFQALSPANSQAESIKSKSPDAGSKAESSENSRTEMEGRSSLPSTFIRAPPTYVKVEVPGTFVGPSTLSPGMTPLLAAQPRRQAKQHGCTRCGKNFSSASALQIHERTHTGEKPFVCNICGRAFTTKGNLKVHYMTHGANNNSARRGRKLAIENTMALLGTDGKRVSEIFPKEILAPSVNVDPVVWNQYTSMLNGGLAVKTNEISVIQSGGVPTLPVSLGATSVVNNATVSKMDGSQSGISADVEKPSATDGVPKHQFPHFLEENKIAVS
Method: universal PBM
Molecule type: double-stranded DNA, one strand shown
Matrix: in vitro
Concentration: 600 nM
Notes: 8-mer, flanks averaged, mean of replicates
Direction: higher = stronger binding
Strand	E-score
ACCGTCTA	-0.103
AATCCACA	0.178
AGGGCTTG	-0.126
CTCAGCAG	-0.178
ATTATGCG	0.281
CAGAGTCC	-0.00348
CAAAAATG	0.202
AAATAGTG	0.252
GTGGGCCA	-0.11
CTTGGGAC	-0.215
CGGTCTTC	-0.265
GCAGTTAC	0.0736

Set 3
Target: Histone acetyltransferase KAT6A, winged helix 2, GST fusion (KAT6A, Homo sapiens, UniProt Q92794, residues 85-181)
Method: protein binding microarray
Molecule type: double-stranded DNA, one strand shown
Matrix: in vitro
Concentration: not given
Notes: 8-mer, flanks averaged, mean of 2 arrays, mostly near background
Relative to: not given
Direction: higher = stronger binding
Construct (chain): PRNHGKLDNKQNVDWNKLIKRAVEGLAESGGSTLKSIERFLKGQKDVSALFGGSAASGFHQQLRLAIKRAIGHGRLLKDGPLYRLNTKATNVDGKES
Strand	E-score
CGATTGCC	0.06
ACGACCTG	-0.14
ACCTCCTA	-0.0342
GAGAAATA	0.0669
AAAATAAC	-0.209
TAAAACCA	-0.112
TTATATAA	0.209
AGTGCCTA	0.0533
CCCATACA	-0.113
ATCACTCC	-0.0806

Further values, each from its own experiment
Molecule	target	test	test system	conditions	how to read	measurement	result
PhoQ, residues 284 288 289 292 302 303 TTSMTC	PhoP, residues 12 14 15 18 19 VQALL (Escherichia coli, UniProt P23836)	Sort-seq, item: YFP reporter	E. coli	PhoQ-PhoP variant library, together with: 10 µM Mg2+	relative to: high Mg2+ state, higher = stronger signaling	fold induction	9.21
